Experimental data gathered from unrelated publications.
Parts stem from different laboratories: compare values within a part only. Changes are numbered by the printed parent chain.

Series 1 — method: RNA Bind-n-Seq; molecule type: RNA; matrix: in vitro; concentration: not given; notes: RNA with constant flanks, ends assumed; baseline: input RNA pool; reading: higher = stronger binding
Target: RING finger protein unkempt homolog, zinc fingers 1-6, GST-SBP tag (UNK, Homo sapiens, UniProt Q9C0B0, residues 30-357)
Chain of UniProt Q9C0B0 (30-357, looked up): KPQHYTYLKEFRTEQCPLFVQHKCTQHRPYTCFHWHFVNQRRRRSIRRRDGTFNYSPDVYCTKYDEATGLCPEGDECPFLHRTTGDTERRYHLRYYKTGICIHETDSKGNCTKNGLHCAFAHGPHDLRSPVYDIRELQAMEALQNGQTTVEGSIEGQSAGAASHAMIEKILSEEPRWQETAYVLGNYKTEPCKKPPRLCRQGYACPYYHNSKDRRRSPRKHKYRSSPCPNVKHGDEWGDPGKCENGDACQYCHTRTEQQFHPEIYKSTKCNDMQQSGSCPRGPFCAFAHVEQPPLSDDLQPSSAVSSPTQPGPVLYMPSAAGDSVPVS
All sequences stand within: GGGAGUUCUACAGUCCGACGAUC … CAACAGAGGAUUGAGCAUCA
| Oligonucleotide | bound/input enrichment [ratio] |
| --- | --- |
| UAAUAAAAACUGGAGAAAUAGGAAUUUGUGAACUCCUAAAAUUGUAGCAACUUUGAAAGGUCCGUGUUUUAUUUACCUGACAAAUGGAAGUUAUAGAAGUCUAAUAAUGUUAAGCACCAG | 1.93 |
| AAGAAAAAGAAAAUGCCGAAGCCAAUCAAUGUAAGAGUAACUACAAUGGACGCUGAGCCCGAAUUUGCCAUCCAGCCCAAUACAACUGGCAAACAACUUUUUGACCAGGUUGUAAAAACA | 0.355 |
| UUUUCUUUCUUUCUUAGCUGUUAGCUGAGAGGAAGUCUCUGAACAGGCGGCAGCGGCUCUUACCGUGCAACCAUGGCAGACUAUUCAACAGUGCCUCCCCCCUCUUCUGGCUCAGCUGGU | 0.19 |
| AGGCGCAAAGCAGCAAAUGUCACGUUACUCACCUCACUGGUAGAAGGGGAAGCUGUUCACUCCGCUCGGGAUUUCGGGUAUAUUUGUGAAACAGAGUUUCCUGCUAAAGCCGUGUCCGAG | 0.135 |
| AAAAAAAUGACUCAAGCCGUGUAUUUUUUAUAUUUUGAUAUACUCACUUGUGAAUUAAAGAACCGGACUAUCACUGAUAAAGUAUCAAAAUAGUAAGAGUGGCAACAUUUUGAAAAUAUU | 0.533 |
| GACAGGGUAGGUGAUAUCCAUAUUUUGGAAGUCACAAAUAACCUAGAGCAUAAGUCCACUUUCCGUAUUUCGAAUUUUCUUAACAAGAGCAGAGGAAAUAACUUUACUGCAAAUCAGAAC | 0.173 |
| CAGAGCAGGGAGGAUAGUGACCCUGAGUACCGGGCCAGCAAGUCCAAGCCACUGACCCUACCCGAAUACAACCUUACUAUGGAUACCGCAAAAUUAUUCAUGUCCUGUCUCCACGCCUGG | 0.136 |
| CUGUUUAUGGGAGACUAUGUGGACAGAGGAUAUUACUCUGUUGAAACAGUUACACUGCUUGCCGCUCUUAAGGUUCGUUACCGAGAGCGCAUCACCAUACUCCGAGGGAAUCACGAGAGC | 0.154 |

Series 2 — target: CCNB1, cyclin fold, Cln2 fusion (human); method: yeast growth competition, sequencing; matrix: yeast; notes: weak parent motif; baseline: not given; reading: higher = stronger binding
Starting sequence: HASPIN docking peptide (human); ASLRSVLFGLMNS
| Substitution | normalised enrichment score |
| --- | --- |
| ASLRSVLFGLANS [M11A] | 0.502 |
| ASLRSVLFGLMAS [N12A] | 0.658 |
| ASLRSVAFGLMNS [L7A] | 0.032 |
| ASLRSALFGLMNS [V6A] | 0.176 |
| ASLRSVLFGAMNS [L10A] | 0.639 |
| AALRSVLFGLMNS [S2A] | 0.0135 |

Series 3 — method: RNA Bind-n-Seq; molecule type: RNA; matrix: in vitro; concentration: 200 nM; notes: whole 134-nt RNA, ends assumed; together with: 150 mM LiCl; baseline: input library; reading: higher = stronger binding; library: 7-deaza-guanosine replaces G
Target: Ras GTPase-activating protein-binding protein 1, full length (G3BP1, Homo sapiens, UniProt Q13283)
Chain of UniProt Q13283 (whole entry, looked up): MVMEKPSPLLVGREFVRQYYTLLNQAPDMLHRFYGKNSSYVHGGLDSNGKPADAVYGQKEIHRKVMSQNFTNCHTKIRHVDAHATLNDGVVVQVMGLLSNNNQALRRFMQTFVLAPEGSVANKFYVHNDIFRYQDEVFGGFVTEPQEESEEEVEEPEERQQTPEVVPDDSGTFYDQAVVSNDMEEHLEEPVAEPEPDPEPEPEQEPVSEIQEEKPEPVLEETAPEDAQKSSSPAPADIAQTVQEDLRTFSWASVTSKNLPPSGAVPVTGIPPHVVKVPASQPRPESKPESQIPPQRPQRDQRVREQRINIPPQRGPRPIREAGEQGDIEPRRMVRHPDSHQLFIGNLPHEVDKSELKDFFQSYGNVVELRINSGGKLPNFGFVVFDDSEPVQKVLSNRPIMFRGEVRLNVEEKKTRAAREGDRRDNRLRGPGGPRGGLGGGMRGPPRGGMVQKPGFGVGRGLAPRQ
All sequences stand within: GGGAGUUCUACAGUCCGACGAUC … UGGAAUUCUCGGGUGUCAAGG
| Oligonucleotide | log2 enrichment |
| --- | --- |
| AAUAACUGACGCUGCAUUUAAUUUUUUUGCCAGUUUAAAAUGUUUGUGUGUUUUUAUAGAUGAUUUUAACUGGUACAUAUUUUGAGUUAA | -3.15 |
| AAGUCCUGUGCUACACAUCGUAUGUACCGAAUCGGGUUUGGGGUUUGGGGUUUGGGAAAGUAUUAUGUUACGCCGUUCGGAUCUGCACUU | -0.96 |
| CAAGUCCUGUGCUACACAUCGUAUGUACCGAAUCGGUGGUUUUUGGUUUUUUUGGAAAGUAUUAUGUUACGCCGUUCGGAUCUGCACUUC | -0.309 |
| UCAAGUCCUGUGCUACACAUCGUAUGUACCGAAUCGGGGCCGGCCGGGCCGGGGAAAGUAUUAUGUUACGCCGUUCGGAUCUGCACUUCC | 0.704 |
| UUCAGUUGGAUGGAUUUAUUGCUCGAAACUGGGCCAAUCAAAGAUCAGCUUUGGGAAGUGCUCUUGAUCCACUUGCUGAUAAAAUACUUA | -2.49 |
| CUCAAGUCCUGUGCUACACAUCGUAUGUACCGAAUCGGUUUGGAGGAAAAAGGAAAGUAUUAUGUUACGCCGUUCGGAUCUGCACUUCCA | -0.116 |
| AAGUCCUGUGCUACACAUCGUAUGUACCGAAUCGGUUUUUGGAAAAAGGAAAAAGGAAAGUAUUAUGUUACGCCGUUCGGAUCUGCACUU | -1.11 |
| UGGGAGGUGGAUUUUGUUUAUUUUUUUAGCUCAUUUCCAGGGGUGGGAAUUUUUUUUUAAUAUGUGUCAUGAAUGAAGUUGUUUUUGAAA | -0.095 |

Mixed results
Starting sequence: PafA, mature enzyme, eGFP fusion (Elizabethkingia meningoseptica, UniProt Q9KJX5); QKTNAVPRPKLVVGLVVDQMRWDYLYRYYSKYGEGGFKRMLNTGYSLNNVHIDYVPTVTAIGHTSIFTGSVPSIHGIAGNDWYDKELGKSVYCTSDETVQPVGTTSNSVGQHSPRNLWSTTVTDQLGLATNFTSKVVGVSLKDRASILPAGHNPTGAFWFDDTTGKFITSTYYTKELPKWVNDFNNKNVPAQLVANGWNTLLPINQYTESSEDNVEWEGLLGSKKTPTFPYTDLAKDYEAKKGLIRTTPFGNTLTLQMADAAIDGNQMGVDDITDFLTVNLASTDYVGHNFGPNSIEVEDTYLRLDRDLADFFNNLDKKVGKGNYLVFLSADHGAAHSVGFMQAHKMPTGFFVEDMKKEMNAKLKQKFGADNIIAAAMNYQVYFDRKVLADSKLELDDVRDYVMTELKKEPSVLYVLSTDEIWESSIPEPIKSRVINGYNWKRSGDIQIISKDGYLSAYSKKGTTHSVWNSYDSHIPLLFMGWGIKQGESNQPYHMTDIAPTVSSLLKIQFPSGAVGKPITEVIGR
| Substitution | target | assay | system | setting | scale | quantity | value |
| --- | --- | --- | --- | --- | --- | --- | --- |
| L15G | inorganic phosphate, free oxyanion | microfluidic competitive inhibition | in vitro, cell-free expressed | not given, derived from inhibition constants, unchanged parent 615000 nM | lower = stronger binding | phosphate dissociation constant | 882 µM |

Some of these lines once more (series 3):
| Oligonucleotide | log2 enrichment |
| --- | --- |
| AAUAACUGACGCUGCAUUUAAUUUUUUUGCCAGUUUAAAAUGUUUGUGUGUUUUUAUAGAUGAUUUUAACUGGUACAUAUUUUGAGUUAA | -3.15 |
| AAGUCCUGUGCUACACAUCGUAUGUACCGAAUCGGGUUUGGGGUUUGGGGUUUGGGAAAGUAUUAUGUUACGCCGUUCGGAUCUGCACUU | -0.96 |
